# Earlier results as cited in several papers.
# Numbered parts are unrelated; values within a part may stem from several laboratories. “And” joins repeats or separate records; there may be more than shown.
# Sequence of UniProt P48039 (whole entry, looked up): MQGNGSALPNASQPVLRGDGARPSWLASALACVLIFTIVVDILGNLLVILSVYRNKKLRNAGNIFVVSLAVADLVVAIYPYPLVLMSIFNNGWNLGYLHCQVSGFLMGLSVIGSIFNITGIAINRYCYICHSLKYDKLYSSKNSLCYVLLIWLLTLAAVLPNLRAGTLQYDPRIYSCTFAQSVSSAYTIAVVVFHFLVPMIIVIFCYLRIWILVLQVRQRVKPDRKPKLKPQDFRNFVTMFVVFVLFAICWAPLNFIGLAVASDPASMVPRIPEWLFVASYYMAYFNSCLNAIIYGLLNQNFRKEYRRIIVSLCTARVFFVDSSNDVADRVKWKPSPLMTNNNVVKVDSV
# Sequence of UniProt P42336 (whole entry, unmodified, looked up): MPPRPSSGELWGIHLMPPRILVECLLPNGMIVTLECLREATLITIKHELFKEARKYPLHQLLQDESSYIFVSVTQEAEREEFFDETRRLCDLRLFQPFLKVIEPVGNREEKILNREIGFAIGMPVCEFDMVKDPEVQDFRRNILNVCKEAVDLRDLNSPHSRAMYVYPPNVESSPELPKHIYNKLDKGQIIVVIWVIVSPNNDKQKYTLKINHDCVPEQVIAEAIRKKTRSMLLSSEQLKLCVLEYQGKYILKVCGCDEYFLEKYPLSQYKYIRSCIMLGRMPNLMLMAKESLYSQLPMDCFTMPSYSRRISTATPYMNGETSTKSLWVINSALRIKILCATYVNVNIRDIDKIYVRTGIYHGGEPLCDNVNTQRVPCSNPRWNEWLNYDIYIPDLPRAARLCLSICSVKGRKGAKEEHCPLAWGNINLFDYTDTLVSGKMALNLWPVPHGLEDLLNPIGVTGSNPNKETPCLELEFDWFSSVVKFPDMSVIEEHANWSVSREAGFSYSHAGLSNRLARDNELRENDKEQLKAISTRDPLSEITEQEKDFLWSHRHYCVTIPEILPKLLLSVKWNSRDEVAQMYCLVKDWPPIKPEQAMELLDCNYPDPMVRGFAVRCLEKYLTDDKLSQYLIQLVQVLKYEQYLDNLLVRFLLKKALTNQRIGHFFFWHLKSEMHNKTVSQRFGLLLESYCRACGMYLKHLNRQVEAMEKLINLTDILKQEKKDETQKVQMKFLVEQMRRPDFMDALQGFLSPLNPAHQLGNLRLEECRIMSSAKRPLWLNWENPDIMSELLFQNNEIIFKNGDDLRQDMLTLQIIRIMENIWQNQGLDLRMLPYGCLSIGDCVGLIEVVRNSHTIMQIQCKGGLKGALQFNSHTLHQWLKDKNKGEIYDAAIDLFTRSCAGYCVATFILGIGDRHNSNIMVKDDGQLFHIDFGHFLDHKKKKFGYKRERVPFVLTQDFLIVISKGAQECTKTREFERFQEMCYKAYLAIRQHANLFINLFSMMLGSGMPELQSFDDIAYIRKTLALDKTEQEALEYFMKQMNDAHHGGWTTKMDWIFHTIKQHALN
# Sequence of UniProt O14976 (whole entry, looked up): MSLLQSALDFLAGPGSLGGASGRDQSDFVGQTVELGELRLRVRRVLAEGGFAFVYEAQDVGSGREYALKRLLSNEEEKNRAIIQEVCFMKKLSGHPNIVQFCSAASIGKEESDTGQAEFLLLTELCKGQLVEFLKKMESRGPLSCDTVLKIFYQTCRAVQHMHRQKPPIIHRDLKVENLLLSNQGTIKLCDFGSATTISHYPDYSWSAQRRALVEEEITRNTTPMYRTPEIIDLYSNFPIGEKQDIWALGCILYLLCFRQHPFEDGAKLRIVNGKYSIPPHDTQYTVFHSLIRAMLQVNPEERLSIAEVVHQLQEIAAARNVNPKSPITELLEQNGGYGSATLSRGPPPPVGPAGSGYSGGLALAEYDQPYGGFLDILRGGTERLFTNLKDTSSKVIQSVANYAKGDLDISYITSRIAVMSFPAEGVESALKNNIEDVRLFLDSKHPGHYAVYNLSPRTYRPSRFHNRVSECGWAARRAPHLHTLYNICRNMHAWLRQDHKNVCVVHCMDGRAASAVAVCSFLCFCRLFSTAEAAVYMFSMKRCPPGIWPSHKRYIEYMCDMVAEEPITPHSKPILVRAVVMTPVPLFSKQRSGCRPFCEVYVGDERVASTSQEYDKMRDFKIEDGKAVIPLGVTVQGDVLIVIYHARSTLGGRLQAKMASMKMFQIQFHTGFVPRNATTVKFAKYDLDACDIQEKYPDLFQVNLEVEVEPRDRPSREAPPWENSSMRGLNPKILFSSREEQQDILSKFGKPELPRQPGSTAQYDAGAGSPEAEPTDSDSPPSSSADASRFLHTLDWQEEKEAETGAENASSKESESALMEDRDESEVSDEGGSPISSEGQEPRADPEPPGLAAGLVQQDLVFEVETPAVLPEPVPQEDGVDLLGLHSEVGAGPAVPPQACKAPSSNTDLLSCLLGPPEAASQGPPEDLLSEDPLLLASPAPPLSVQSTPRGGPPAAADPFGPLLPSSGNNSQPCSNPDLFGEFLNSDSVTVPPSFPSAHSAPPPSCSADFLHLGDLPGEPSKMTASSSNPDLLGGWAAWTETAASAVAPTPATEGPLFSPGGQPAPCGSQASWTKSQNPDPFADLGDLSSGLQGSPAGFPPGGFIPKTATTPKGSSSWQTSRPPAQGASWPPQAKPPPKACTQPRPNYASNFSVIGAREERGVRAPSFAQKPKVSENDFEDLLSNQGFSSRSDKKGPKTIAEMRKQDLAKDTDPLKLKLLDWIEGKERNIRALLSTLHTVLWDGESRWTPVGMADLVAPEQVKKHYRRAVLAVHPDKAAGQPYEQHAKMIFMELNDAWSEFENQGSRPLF

# Block 1
# Target: HLA class I histocompatibility antigen, A alpha chain, allele A*25:01 (Homo sapiens, UniProt P04439)
# Read-out: peptide-MHC binding
# Form: peptide
Molecule,IC50 [nM]
WTLAKPDFV,> 20000
DTVNRTHQY,31
ETIEILRNY,12
KLHCTERSL,> 20000
RKLTNPANK,> 20000
LPSCPTNFCIF,> 20000
YSLEYFQFVKK,> 20000
RAWDPQPAM,> 20000
YPDPVIKV,> 20000
STNTLPTEY,> 20000
FAAPHRGVA,> 20000
FLAFFSNGV,> 20000
YSSHELWHF,> 20000
TVYGLGADV,> 20000

# Other studies, line by line
# HTR3A: 5-hydroxytryptamine receptor 3A (HTR3A, Homo sapiens, UniProt P46098)
# Sequence of UniProt P46098 (whole entry, looked up): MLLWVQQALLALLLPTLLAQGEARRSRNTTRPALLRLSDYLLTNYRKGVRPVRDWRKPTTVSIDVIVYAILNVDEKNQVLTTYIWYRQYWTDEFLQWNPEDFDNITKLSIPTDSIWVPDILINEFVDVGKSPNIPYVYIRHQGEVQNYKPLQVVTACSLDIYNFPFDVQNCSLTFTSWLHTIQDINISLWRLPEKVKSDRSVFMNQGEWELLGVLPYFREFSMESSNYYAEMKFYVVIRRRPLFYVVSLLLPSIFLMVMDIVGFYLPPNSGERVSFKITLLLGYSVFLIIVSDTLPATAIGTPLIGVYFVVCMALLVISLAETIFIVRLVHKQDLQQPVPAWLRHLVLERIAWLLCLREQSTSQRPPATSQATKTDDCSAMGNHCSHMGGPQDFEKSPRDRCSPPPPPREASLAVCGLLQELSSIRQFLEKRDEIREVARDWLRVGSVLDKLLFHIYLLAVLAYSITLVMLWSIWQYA
SMILES,tested on,assay,test system,setting,measurement,value
Oc1ccc2c3c1O[C@H]1c4[nH]c5ccccc5c4C[C@@]4(O)[C@@H](C2)N(CC2CC2)CC[C@]314,"HEK293, recombinant","binding, radioligand binding",,,Kd,0.3 nM
CC(=O)O[C@@]12CO[C@@H]1C[C@H](O)[C@@]1(C)C(=O)[C@H](OC(=O)C3CC3)C3=C(C)[C@@H](OC(=O)[C@H](O)[C@H](C=C(C)C)NC(=O)OC(C)(C)C)C[C@@](O)([C@@H](OC(=O)c4ccccc4)[C@H]21)C3(C)C,HCT-116,cytotoxicity,,,IC50,2.23 nM
CNC(=NC#N)NCCCCCCCCc1c[nH]cn1,,"antinociception, hot plate test",rat,"intracerebroventricular, 5 min",ED50,81.9 nmol
O=C(Nc1cnccc1CO)[C@@H]1CCOc2ccc(Cl)cc21,main protease (Mpro),,,20 µM,inhibition,64.5%
CN1C(=O)CN=C(c2ccccc2F)c2cc([N+](=O)[O-])ccc21,GABAA-a1,"binding, ligand binding",,,Kd,1.4 nM
CN1[C@@H]2CC[C@H]1C[C@@H](OC(=O)c1cc(Cl)cc(Cl)c1)C2,HTR3A,binding,,,Hill coefficient,0.8
COc1ccc2[nH]cc(CCNC(C)=O)c2c1,"MTNR1A (Homo sapiens, UniProt P48039)",,,,Hill coefficient,0.7
COc1ncccc1-c1cnn2ccc(N3CCN(C(=O)OC(C)C)CC3)nc12,"GAK (Homo sapiens, UniProt O14976)",,,literature value,IC50,320 nM
CCCCCCCCCCCCCC(=O)O[C@@H]1[C@@H](C)[C@@]2(O)[C@@H](C=C(CO)C[C@]3(O)C(=O)C(C)=C[C@@H]23)[C@@H]2C(C)(C)[C@]12OC(C)=O,phorbol ester receptor,radioligand binding,,,Ki,0.59 nM
CN1[C@@H]2CC[C@H]1C[C@@H](OC(=O)c1cc(Cl)cc(Cl)c1)C2,HTR3A,,,,Hill coefficient,0.8
COC(=O)[C@@H]1C[C@H](OC(C)=O)C(=O)[C@H]2[C@@]1(C)CC[C@H]1C(=O)O[C@H](c3ccoc3)C[C@]21C,kappa opioid receptor,,,,Ki,31.6 nM and 33 nM and 17.5 nM and 23.5 nM
Nc1ncc(-c2nc(N3CCOCC3)nc(N3CCOCC3)n2)c(C(F)F)n1,"PIK3CA (Homo sapiens, UniProt P42336, Q546K)",KinomeScan competition binding,,10 µM,remaining binding,0%
CCC[C@@H](C(=O)Nc1cnccc1C)c1cccc(Cl)c1,main protease (Mpro),,,20 µM,inhibition,77.9%
COc1ccc(C[C@@H](C)[C@@H](C)Cc2ccc(OC)c(OC)c2)cc1OC,,,"human, advanced refractory solid tumours","intravenous, 24 h, weekly continuous infusion",MTD,2200 mg

# Repeated from above (other studies, line by line):
SMILES,tested on,assay,test system,setting,measurement,value
COC(=O)[C@@H]1C[C@H](OC(C)=O)C(=O)[C@H]2[C@@]1(C)CC[C@H]1C(=O)O[C@H](c3ccoc3)C[C@]21C,kappa opioid receptor,,,,Ki,31.6 nM and 33 nM and 17.5 nM and 23.5 nM
Nc1ncc(-c2nc(N3CCOCC3)nc(N3CCOCC3)n2)c(C(F)F)n1,"PIK3CA (Homo sapiens, UniProt P42336, Q546K)",KinomeScan competition binding,,10 µM,remaining binding,0%
COc1ccc(C[C@@H](C)[C@@H](C)Cc2ccc(OC)c(OC)c2)cc1OC,,,"human, advanced refractory solid tumours","intravenous, 24 h, weekly continuous infusion",MTD,2200 mg
COc1ccc2[nH]cc(CCNC(C)=O)c2c1,"MTNR1A (Homo sapiens, UniProt P48039)",,,,Hill coefficient,0.7
O=C(Nc1cnccc1CO)[C@@H]1CCOc2ccc(Cl)cc21,main protease (Mpro),,,20 µM,inhibition,64.5%
